Published values gathered from unrelated publications.
Every numbered part comes from another study and shows a few of its results, in no order.

Sample 1 — technique: protein-binding microarray; molecule type: double-stranded DNA, one strand shown; matrix: in vitro; tested at: 0.8 µM; notes: whole 60-bp probe, no competitor; direction: higher = stronger binding; quantity: fluorescence intensity
Target: Centromere-binding protein 1, full length, N-terminal tag (CBF1, Saccharomyces cerevisiae, UniProt P17106, residues 1-351)
Sequence of UniProt P17106 (whole entry, looked up): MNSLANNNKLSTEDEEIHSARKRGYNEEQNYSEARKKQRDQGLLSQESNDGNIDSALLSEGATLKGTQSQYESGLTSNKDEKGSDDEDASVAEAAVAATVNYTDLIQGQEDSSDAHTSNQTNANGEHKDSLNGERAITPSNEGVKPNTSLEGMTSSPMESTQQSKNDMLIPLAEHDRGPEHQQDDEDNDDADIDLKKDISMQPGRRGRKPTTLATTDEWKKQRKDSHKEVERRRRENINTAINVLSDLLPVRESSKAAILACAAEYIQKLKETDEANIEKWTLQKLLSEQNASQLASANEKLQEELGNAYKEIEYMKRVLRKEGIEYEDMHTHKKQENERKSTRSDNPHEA
GAAGAATACTAGTATCACGAATACTAGTCAGTATAGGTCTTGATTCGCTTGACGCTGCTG: 520 a.u.
GAATATAAGACGGTCCTCCTGATGAGAGGAAGATAGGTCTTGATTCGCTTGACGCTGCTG: 524 a.u.
GAAAAGTTACATATACACGTTATACATGTATAGTAGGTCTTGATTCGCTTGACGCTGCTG: 545 a.u.
GAAATGACCCTATTGCAGGTGATCCTGATGTAGTAGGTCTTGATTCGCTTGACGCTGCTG: 689 a.u.
GAAGTTATATTTTCCCACGTTTCACTTCGCGTTTAGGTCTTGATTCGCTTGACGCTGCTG: 554 a.u.
CTACGAACCCTAGGTGACCGCATTAGACAGAGATTCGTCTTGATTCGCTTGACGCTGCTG: 496 a.u.
CTATTCAGCAAACGTGATTTGCAAAACAACGGTTTCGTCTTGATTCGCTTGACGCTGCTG: 2240 a.u.
CTACACTCTCACTATCACACCTACAATCAAATTTTCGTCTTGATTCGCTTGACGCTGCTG: 566 a.u.
GAACATTATACAAGCCTCCTGATAAACGTATCTTAGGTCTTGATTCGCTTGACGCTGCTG: 552 a.u.
CTAGCTAACGATCAACACCTGACCGAGATAACATTCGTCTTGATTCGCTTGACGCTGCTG: 1970 a.u.
CTAATTACCAAGAACCACGTTATTTGAGAGAGGTTCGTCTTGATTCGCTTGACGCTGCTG: 597 a.u.
GAATAAGACAACAGGTGATTAACCTCCAGATGGTAGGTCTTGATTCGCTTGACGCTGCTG: 1500 a.u.
CTATATAGCGTGGATTGCGTGAGATTGTGTGGATTCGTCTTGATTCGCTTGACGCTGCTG: 531 a.u.
CTAATCTCACGTATTCACGTAATATTTGATTTTTTCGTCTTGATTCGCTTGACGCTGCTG: 499 a.u.
GAAGAAATAATCGATCACCATCGTTGCCTCTTTTAGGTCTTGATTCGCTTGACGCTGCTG: 530 a.u.
GAATTAAGGTTGTCTGTCGTGATTAACGGAGCCTAGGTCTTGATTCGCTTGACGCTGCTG: 537 a.u.
GAATACCCTGCCGGCCACATGCCGAATTAAATTTAGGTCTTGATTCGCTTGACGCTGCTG: 664 a.u.

Sample 2 — technique: protein binding microarray; molecule type: double-stranded DNA, one strand shown; matrix: in vitro; tested at: not given; reference: not given; direction: higher = stronger binding; quantity: E-score
Target: Histone acetyltransferase KAT6A, both winged helices, GST fusion (KAT6A, Homo sapiens, UniProt Q92794, residues 1-181)
Notes: 8-mer, flanks averaged, mean of 2 arrays, mostly near background
Construct (chain): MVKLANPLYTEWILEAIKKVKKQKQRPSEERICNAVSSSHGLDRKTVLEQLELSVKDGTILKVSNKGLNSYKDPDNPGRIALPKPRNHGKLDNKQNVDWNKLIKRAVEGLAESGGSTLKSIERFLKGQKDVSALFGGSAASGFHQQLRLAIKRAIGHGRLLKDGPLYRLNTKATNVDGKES
CTCGCTTC: 0.0498
CGAATTAG: -0.161
GGATTCAA: -0.105
ACAGTTCC: 0.136
GCACCTAC: -0.0103
AGATCGCC: 0.0279
CAAATGGC: -0.0129
ACGGTGTG: 0.053
TACAATGA: -0.167
GGTTGAGA: -0.00048
ACGGTAGC: 0.183
AGATTGAC: 0.0465
CCAGCTTA: 0.0378
CACAGCCA: -0.111
ATCACCAG: -0.0599
GCAAAGGA: -0.0266
AAAGTCTT: -0.0952
TTCACAAA: 0.0217
AATTTTGT: 0.0134
GTGTCTGA: 0.0328
ATACTCTG: 0.0135
TGACTGCA: -0.109
CACAACAC: 0.0393
ACGTTCCA: -0.16
TCTATAGA: 0.0278

Sample 3 — technique: RNAcompete; molecule type: RNA; matrix: in vitro; tested at: 20 nM; notes: 7-mer, probes averaged, single round; reference: mean of 7-mers; direction: higher = stronger binding; quantity: 7-mer Z-score
Target: PABPC1L2, full length, GST fusion (mouse, UniProt A0ABA7IW68)
Target sequence (chain): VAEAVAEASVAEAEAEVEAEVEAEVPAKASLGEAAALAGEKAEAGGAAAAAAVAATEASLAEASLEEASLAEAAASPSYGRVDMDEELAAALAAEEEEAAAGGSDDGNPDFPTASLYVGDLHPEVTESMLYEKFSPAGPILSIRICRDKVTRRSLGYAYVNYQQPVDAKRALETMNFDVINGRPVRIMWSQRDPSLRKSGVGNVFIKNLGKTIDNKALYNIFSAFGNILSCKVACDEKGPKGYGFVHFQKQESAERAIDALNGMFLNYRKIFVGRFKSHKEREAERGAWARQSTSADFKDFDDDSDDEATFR
CGGUCUU: -0.257
AAGGAGA: 0.427
GACCCCG: -0.273
UGGUAUC: 0.0315
AGUACUU: -0.228
GGUGCAU: 0.12
UACCAUU: -0.222
UGGUUUC: -0.367
GGGGUGU: 0.0859
CGCCGUA: -0.325
GUGCGGC: 0.00798
UGCGGCA: 0.0315
AGCGACU: -0.0645
CAACUUU: -0.235
CGUGCUC: -0.291
UAAAAAA: 17.3
GGUCCGC: -0.311
CUGGGCU: -0.151
ACCGUGU: -0.202
CGGUAUA: -0.112

Sample 4 — technique: protein-binding microarray; molecule type: double-stranded DNA, one strand shown; matrix: in vitro; tested at: 250 nM; notes: 60-bp whole probe; with: salmon DNA 0.4 mg/ml; reference: random background probes; direction: higher = stronger binding; quantity: log fluorescence; constant ends, left off below: GCCTAGCAC … GTCTTGATTCGCTTGACGCTGCTG
Target: Interferon regulatory factor 7, full length, phosphomimetic (IRF7, Homo sapiens, UniProt Q92985, residues 1-503, S101K/S471D/S472D/S475D/S476D/S477D/S483D/S484D/S487D)
Construct (chain): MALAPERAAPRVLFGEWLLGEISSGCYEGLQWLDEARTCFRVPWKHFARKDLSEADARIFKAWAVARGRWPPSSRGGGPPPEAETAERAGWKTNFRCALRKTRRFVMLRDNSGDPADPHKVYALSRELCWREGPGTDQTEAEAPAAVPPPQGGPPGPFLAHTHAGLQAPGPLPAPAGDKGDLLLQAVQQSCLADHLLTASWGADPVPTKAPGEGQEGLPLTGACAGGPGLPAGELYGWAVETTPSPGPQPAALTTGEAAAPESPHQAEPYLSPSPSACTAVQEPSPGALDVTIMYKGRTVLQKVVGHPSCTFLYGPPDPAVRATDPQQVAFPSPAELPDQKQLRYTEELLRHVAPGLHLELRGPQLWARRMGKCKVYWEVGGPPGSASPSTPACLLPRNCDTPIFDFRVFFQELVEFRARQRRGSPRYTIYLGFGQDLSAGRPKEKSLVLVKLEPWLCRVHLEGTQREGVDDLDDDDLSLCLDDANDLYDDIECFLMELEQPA
GACGGTATCGGTTTCAGGACGTGCTAG: 4.93 z-score
GACGACCTGAGACTGGAGACGTGCTAG: -0.253 z-score
TTAGGTTTCGGACTGGGTGAGTGCTAG: 3.91 z-score
TTAGGTCTCGGTTTCGGTAAGTGCTAG: 8.52 z-score
TTAGGTCTCCTTCTCCTCTAGTGCTAG: 0.65 z-score
TTAGATCTGGGGTATCGATTAGTGCTA: 0.339 z-score
GACGGTCTCGTACTGGGGACGTGCTAG: 0.213 z-score
TTAGATCTCAGTAGCGATTAGTGCTAG: 0.0554 z-score
TCCCAATTCTCTTTTCACTTGTGCTAG: 1.7 z-score
CTTTCTCCCAAGTCTTGTTTTGTGCTA: 3.32 z-score
GACTGACTGGGGTATCGGGACGTGCTA: -0.386 z-score
TTAGTTCTCGGACTGGGTTAGTGCTAG: 0.656 z-score
TTAGGTCTCCTTATCCATTAGTGCTAG: 0.385 z-score
TCATCTTCCTTCATGGCACTGTGCTAG: 1.13 z-score
GACGGTCTCGGTATCGGGAAGTGCTAG: 2.45 z-score
GTCGGTATCGGGTATCGGGACGTGCTA: 0.99 z-score
GACGATTTGGGGTATCGAGACGTGCTA: -0.316 z-score
GCAACACTCACCATGGCTAGGTGCTAG: -0.0809 z-score
TTAGGAGTGGGGACTGGGTTAGTGCTA: -0.415 z-score
TTAGGACTGAGACTGGGTTAGTGCTAG: -0.125 z-score
TCATGTATATCTTCAGCACTGTGCTAG: -0.0262 z-score
CTAGGTCTCGGTCTCGGTTAGTGCTAG: 2.66 z-score
TCACCTGTGCTATTTATAACTGTGCTA: -0.526 z-score
GACGGTTTCCTGCTCCTGACGTGCTAG: 0.902 z-score
GACGATATCACTTTCGAGACGTGCTAG: 0.826 z-score

Repeated from above (sample 3):
UGGUAUC: 0.0315
AGUACUU: -0.228
GGUGCAU: 0.12
UACCAUU: -0.222
UGGUUUC: -0.367
GGGGUGU: 0.0859
CGCCGUA: -0.325
GUGCGGC: 0.00798
UGCGGCA: 0.0315
AGCGACU: -0.0645
CAACUUU: -0.235
CGUGCUC: -0.291
